# Experimental data collected from several papers.
# Numbered parts are unrelated; each lists some results of a single study.

# Sample 1
# Target: Centromere-binding protein 1, full length, N-terminal tag (CBF1, Saccharomyces cerevisiae, UniProt P17106, residues 1-351)
# Chain of UniProt P17106 (whole entry, looked up): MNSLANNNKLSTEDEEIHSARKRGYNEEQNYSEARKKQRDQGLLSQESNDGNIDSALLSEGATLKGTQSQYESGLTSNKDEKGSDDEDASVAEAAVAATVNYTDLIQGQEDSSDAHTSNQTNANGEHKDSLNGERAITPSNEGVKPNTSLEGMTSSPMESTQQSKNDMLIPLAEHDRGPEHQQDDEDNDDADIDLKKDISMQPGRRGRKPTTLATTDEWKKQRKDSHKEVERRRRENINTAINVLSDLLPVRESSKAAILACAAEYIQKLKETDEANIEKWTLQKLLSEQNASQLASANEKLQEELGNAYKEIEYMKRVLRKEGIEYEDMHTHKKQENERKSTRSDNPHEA
# Method: protein-binding microarray
# Form: double-stranded DNA, one strand shown
# Sample: in vitro
# Tested at: 0.8 µM
# Setting: whole 60-bp probe, no competitor
# Reading: higher = stronger binding
# Shared flanks, not repeated: … GTCTTGATTCGCTTGACGCTGCTG
Sequence,fluorescence intensity [a.u.]
CCTAACTACTATAGTCACATATAATAGCTTCGTACA,508
CTAAAAAGAATACGTCACCAAAGTATCAGAAACTTC,520
GAAGAAAGATATTTGAGCGTGCCTTCGTGAGAATAG,528
CTAATCTATTATTTATACGTGACATACCATTACTTC,719
GAACATTCGTAACCATGTGAGATGCTCAAATGTTAG,769
CTAGGTATGTTCAATTGCACCACCAGTATTCGATTC,500

# Sample 2
# Target: Histone acetyltransferase KAT6A, winged helix 2, GST fusion (KAT6A, Homo sapiens, UniProt Q92794, residues 85-181)
# Method: protein binding microarray
# Form: double-stranded DNA, one strand shown
# Sample: in vitro
# Tested at: not given
# Setting: 8-mer, flanks averaged, mean of 2 arrays, mostly near background
# Reference: not given
# Reading: higher = stronger binding
# Target sequence (chain): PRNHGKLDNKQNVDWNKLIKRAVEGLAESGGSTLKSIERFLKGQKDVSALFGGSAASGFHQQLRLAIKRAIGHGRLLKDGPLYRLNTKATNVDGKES
Sequence,E-score
AGCTCCTG,-0.114
CGGGTTGC,0.0733
AATTGATG,0.093
CCTATTCC,-0.129
ACCGTATA,-0.242
AAGTTCCT,-0.0833
CACGACCG,-0.0751
AACGTGCC,-0.202

# Sample 3
# Target: Fragile X messenger ribonucleoprotein 1, C-terminal low-complexity region (Fmr1, Mus musculus, UniProt P35922)
# Method: RNA Bind-n-Seq
# Form: RNA
# Sample: in vitro
# Tested at: 200 nM
# Setting: whole 134-nt RNA, ends assumed
# With: 150 mM KCl
# Reference: input library
# Reading: higher = stronger binding
# Shared flanks, not repeated: GGGAGUUCUACAGUCCGACGAUC … UGGAAUUCUCGGGUGUCAAGG
Sequence,log2 enrichment
AAGUCCUGUGCUACACAUCGUAUGUACCGAAUCGGUUUUUGGUUUUUGGUUUUUGGGAAAGUAUUAUGUUACGCCGUUCGGAUCUGCACU,-0.89
AGUCCUGUGCUACACAUCGUAUGUACCGAAUCGGGGUGGGGAAAAAGGGGUUUGGGGAAAGUAUUAUGUUACGCCGUUCGGAUCUGCACU,0.773
CAAGUCCUGUGCUACACAUCGUAUGUACCGAAUCGGAAAGGGAAAGGGGAAAGGGAAAGUAUUAUGUUACGCCGUUCGGAUCUGCACUUC,-0.13
UCAAGUCCUGUGCUACACAUCGUAUGUACCGAAUCGUGUGUGUGUGUGUGUGUGAAAGUAUUAUGUUACGCCGUUCGGAUCUGCACUUCC,0.182
UCCUGUGCUACACAUCGUAUGUACCGAAUCGGGAAAAAAAGGGUUUUUGGGAAAAAGGGAAAGUAUUAUGUUACGCCGUUCGGAUCUGCA,-0.306
CACAGACAACACGCACCCACACAGACACAGAGGGAAGGGGUUGGGAUGGGGUCAGGGUGCACAGCAGGGCGGGGUAGGACCCCAGCCCCU,1.47
UGGCCCUGGUGGCAUGCGGGGAGGAAGAGGUGGCCUCAUGGUUCGUGGUGGUCCCGGUGGAAUGUUCAGAGGUGGCCGUGGUGGAGACAG,-0.00585

# Other studies, line by line
Substance,target,test,test system,setting,scale,quantity,value
"PhoQ, residues 284 288 289 292 302 303 WSHMKI","PhoP, residues 12 14 15 18 19 STHWV (Escherichia coli, UniProt P23836)","Sort-seq, measured: YFP reporter",E. coli,"PhoQ-PhoP variant library, with: 10 µM Mg2+","reference: high Mg2+ state, higher = stronger signaling",fold induction,0.587

# Repeated from above (sample 3):
Sequence,log2 enrichment
CAAGUCCUGUGCUACACAUCGUAUGUACCGAAUCGGAAAGGGAAAGGGGAAAGGGAAAGUAUUAUGUUACGCCGUUCGGAUCUGCACUUC,-0.13
UCAAGUCCUGUGCUACACAUCGUAUGUACCGAAUCGUGUGUGUGUGUGUGUGUGAAAGUAUUAUGUUACGCCGUUCGGAUCUGCACUUCC,0.182
UCCUGUGCUACACAUCGUAUGUACCGAAUCGGGAAAAAAAGGGUUUUUGGGAAAAAGGGAAAGUAUUAUGUUACGCCGUUCGGAUCUGCA,-0.306
CACAGACAACACGCACCCACACAGACACAGAGGGAAGGGGUUGGGAUGGGGUCAGGGUGCACAGCAGGGCGGGGUAGGACCCCAGCCCCU,1.47
